Measured values collected from several papers.
Parts stem from different laboratories: compare values within a part only.

Sample 1
Target: Centromere-binding protein 1, full length, N-terminal tag (CBF1, Saccharomyces cerevisiae, UniProt P17106, residues 1-351)
Sequence of UniProt P17106 (whole entry, looked up): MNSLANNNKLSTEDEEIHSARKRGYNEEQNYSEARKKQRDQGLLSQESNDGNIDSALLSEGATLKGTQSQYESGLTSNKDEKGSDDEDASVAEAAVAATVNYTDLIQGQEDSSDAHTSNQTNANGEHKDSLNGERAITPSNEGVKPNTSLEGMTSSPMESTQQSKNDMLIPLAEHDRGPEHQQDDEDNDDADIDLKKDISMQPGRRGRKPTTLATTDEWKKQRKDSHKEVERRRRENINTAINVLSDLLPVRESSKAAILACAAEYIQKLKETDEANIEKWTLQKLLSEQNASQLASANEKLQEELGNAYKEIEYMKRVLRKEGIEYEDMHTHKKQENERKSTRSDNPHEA
Method: protein-binding microarray
Molecule type: double-stranded DNA, one strand shown
Medium: in vitro
Concentration: 0.8 µM
Notes: whole 60-bp probe, no competitor
Direction: higher = stronger binding
All sequences stand within: … GTCTTGATTCGCTTGACGCTGCTG
| Strand | fluorescence intensity [a.u.] |
| --- | --- |
| GAAGTACCTTGACATGGCGTGTTACGTGTTTCATAG | 524 |
| CTAGCGTAATTCTCTCAGCTGAACAAGAACTGATTC | 538 |
| GAATTGATATCTAATCTCACCAGACTTTCAAGTTAG | 529 |
| GAATCTTTAATGCACGTGATGAAGGCTCGTTTTTAG | 10800 |
| GAAAATACTGGACATAGCATCATGAATTTTTTTTAG | 530 |
| GAATTACGTTACTATCACGTGATAACAATCACATAG | 28300 |
| GAATACCCTCTCTAAAATGTCACCTAGTATTTTTAG | 494 |
| CTAGATGCCACAAGTACTCAGGTGTCCTATGAATTC | 562 |
| GAATGTGGTGGGTGTGGTGTGGTGTGTGTGGGTTAG | 516 |
| GAAATTGTATCGTGTCACCCCCATGTCATATTATAG | 650 |
| GAAAATGTGTGCCGGGTCATGAGATGCCAAACTTAG | 633 |
| TGTACGAAGCTATCGAACATGTGTATAGTAGTTAGG | 671 |
| CTACCCCGCTTTCATCATGTGAACATCTATAGATTC | 1120 |
| GAAACATTTAACTATAACATCAGTCGTATGTTATAG | 540 |
| GAATGAAAGACGCACCACATGTACATATCACGTTAG | 966 |
| GAAGAATGTTCATACGTGATTATAAGAATCGAGTAG | 624 |
| GAATTACACATAAAGTACGTGCCATTTATTTATTAG | 559 |
| CTAATAAAAAAAGACTACGTGGGTGTTTACCTATTC | 485 |

Sample 2
Target: RNA binding protein fox-1 homolog 2, RRM domain, GST-SBP tag (RBFOX2, Homo sapiens, UniProt O43251-10, residues 100-194)
Method: RNA Bind-n-Seq
Molecule type: RNA
Medium: in vitro
Concentration: 365 nM
Notes: natural RNA segment, single round, ends assumed
Baseline: no-protein control
Direction: higher = stronger binding
All sequences stand within: GGGAGUUCUACAGUCCGACGAUC … UGGAAUUCUCGGGUGCCAA
Construct (chain): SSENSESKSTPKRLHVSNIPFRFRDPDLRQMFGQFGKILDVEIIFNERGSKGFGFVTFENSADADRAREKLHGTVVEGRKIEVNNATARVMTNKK
| Strand | RBNS enrichment (R) |
| --- | --- |
| UUGGACAAUUUAGGAAUUUUAAACUUUAGAUGAUCAUUUGGUUCCAUUUUUAUUUCAUUUUUAUUUUUGUUAAUGCAAACAGGACUUAAAUGAACUUUGAUCUCUGUUUU | 0.653 |
| ACACUGAUAGUAUCUCAUGAGUAAUGUGUGUUUUGGGAGAGGGAGGGAUGCUGAUUGAUAUUUCACAUUGUAUGAAAUACCAUGUUUGAAACUCAUAGCAAUAAUGCUAU | 0.626 |
| UCUUCCCAGCACUUCCCUGCCUCCCCCAGGCCUCAGGCCCAGCACCCAGUUCCUCCUCACAUGGCAGGUGAGCACAGACUUCUAGUUGGCAGGAGCUGAGGAGGGUGAAC | 0.83 |
| GUCCCGAGUGGGGGCCGUGCCUUUGCCCAGACCCUGCACUUUCAACCAGGCCAGUCCGGCUCUGGGGAGCAGGGGCCUCCCCGGCAACAGCCCCAGGGGCCUUGAGGGUC | 0.36 |
| ACUCUUCUCAGAGCUUUGGGGGUUAUGUGAAAGGCUGACUAGUUGAGGGUUUAGCUGCAGGGAAGGUCCUGGGUAGAUUUCCUUUUUAAGGUUCCCAGGGUGUGGAUGCC | 0.793 |
| ACAAAAUUUGAAGAUAUUAUGUAGUGGUCAAGGACCACUAAUAUUUGGGGAGUGUGUUUUGUCUGUUCUUCAAUGAAGGAUCAAUCCAGUGUUCUUCAUCAAUGUUAGUU | 0.426 |
| GAUUGAUCUUAACUGAACGAAAACAAAACUGCAUAUGUACUUAAACAGUCUGCAUAUUUGCCAUCCAGCAGAAGACUGAAGGGUGGUCAGAACAGAGGCUUUUUGUUUUU | 0.345 |
| ACUUCACAUUCAGAUUUAUGUUCCAUUUCUUUUGACUGAGAAAAGUUGAACGGUAUGCAUGGUGAAAGGAAGCUGUCUGCCUCUGACCUUUCCCCAGGCUAUGAAAAGGA | 0.705 |
| AUGUUUUCAUAUUAUGAAAUGAAUUUGUAUUUAAACAAAAAUUUAAAUUUUGGAAUCCUCUAAACAUUUUUGUAUCUUUAAUUGUUAUUAUUAAAUCAUGUAAAAGUUCU | 0.75 |
| UAUUGAGCCAGGCAGUGGUGACACGCACACCUUUAAUCCUGGCAUUUGGGAGGUAGAGGCAGUCAGAUCUCUGUGAGUUCAAGGCCAGCCUGGUCUACAGAGUAAGUUCU | 0.26 |
| GCCAGUCAAGUAAGUUCCUGGAUCUUUGGCAAAGCCAGAGGAAGAAAGGAGCUACCUGCCCUUUCCUGGGCAUGCUUGGUGACUCAGAUUGAUCUUGGAGUGUGCAGUGG | 0.675 |
| CCAGGGUGAAAGGGCUGGCAUGGCAUCGCUCAUUUUAUUGCUCUGCAGGUAAACUGUAUAGGUAUAGAGUCCUCCAGUGCUCUGAAGAGCCCUGCCUCUAUGCACGCCCC | 0.386 |

Sample 3
Target: RING finger protein unkempt homolog, zinc fingers 1-6, GST-SBP tag (UNK, Homo sapiens, UniProt Q9C0B0, residues 30-357)
Method: RNA Bind-n-Seq
Molecule type: RNA
Medium: in vitro
Concentration: not given
Notes: RNA with constant flanks, human-mouse chimeric sites, ends assumed
Baseline: input RNA pool
Direction: higher = stronger binding
All sequences stand within: GGGAGUUCUACAGUCCGACGAUC … CAACAGAGGAUUGAGCAUCA
Residues (chain): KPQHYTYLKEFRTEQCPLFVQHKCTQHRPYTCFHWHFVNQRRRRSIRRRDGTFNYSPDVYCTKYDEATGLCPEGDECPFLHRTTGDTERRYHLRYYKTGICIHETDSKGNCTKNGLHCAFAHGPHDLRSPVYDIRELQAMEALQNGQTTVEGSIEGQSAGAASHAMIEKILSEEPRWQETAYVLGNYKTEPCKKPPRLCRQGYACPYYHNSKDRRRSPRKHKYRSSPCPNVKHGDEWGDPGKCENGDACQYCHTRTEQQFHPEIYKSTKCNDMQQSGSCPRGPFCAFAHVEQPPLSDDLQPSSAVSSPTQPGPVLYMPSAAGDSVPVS
| Strand | bound/input enrichment [ratio] |
| --- | --- |
| UACUGCUGCUUUCAACUUAAAUCACUGAGGCAUCUCUACUGUUCUGUGAGCAUCAGGACUGUAGCGCUGUGUCACCACAGAUGAGAACAGAAGCAGCCUUUCUGUGGAGGGUGGGAAUGA | 0.157 |
| AUCAAAUAUUUUGGGGACAUCAUUAGUGUGGGACAGAGACUGUUGCAAGGAGCUCGGAUCUUAGGGAUUCCAGUUAUCAUAACGGAACAAUACCCCAAAGGACUUGGCAGCACCGUUCAA | 0.211 |
| ACACAAUAUGAGACCAACAGCAUGGACUUCAAAGUUGGGGCAGAUGGGACAGUCUUCGCCACCCGGGAGCUGCAGGUCCCCUCAGAGCAGGUGGCGUUUACCGUCACUGCAUGGGACAGC | 0.142 |
| CUAGCAGUCCAGCAGCUAGAAGGAGCCUUGAGACAAACACUCCACACACAGGGAAGGCGAUAACAUUGUACAUUGGUUUACAUUUUUUCCCCCUGUGGAUUUUUCUAUCCUAGUGCUUGC | 0.403 |
| UUCCCAACCUCCCGCCUCACCCCACCCCCGCUUUUUGGAAAGUUUUUGGCGUUUCUUUUCCUUCCCCAUACAAAGUGAUUACAGUUUCCCCCGCAAGGGUCUAUCGAUUCACCCUUCGGA | 0.604 |
| AAAGAGAAACUAAAGCAAACUGAUUGAAAGAGGAUUGGCAAAGAGAAUUUCAUAGAGAAACUAGGAUUUAUUAGCAAACAUGAGUUAUAUUCCAGAGGCAUCUCAGAACCCCAGCCAAAC | 9.92 |
| GAAACAUUUAAAUUUAAAGAAGCUGUUGUUCUAGGAAGCACGGACUUUCUAGAAGAUGAUAUAGAGAAAAUUGUAGAAGAACUGGGGAAAGAGUAUAAGGGCAACGCUUAUCAUUUAAUG | 1.93 |
| UGACAAGCACGAGCAUCAGCCAUGCCUUUCCUUGACAUACAGAAAAAGUUCGGCCUUAGCCUGGACCGGCACUUUAUGUUCCUAAGCGCAGAACAGCCCUAUAAGAACGCCGCUCGGUGC | 0.0962 |
| UCCCAAAUCCAGCAGCUAGAAGGAGCCUUGAGACAAACACUCCACACGCAGGGAGGGCGAUAACAUUGUACAUUGGUUUACAUUUUUUCCCCCUGUGGAUUUUUCUAGAGGUCAUAGUGC | 0.397 |
| UUCAAAGAAAAGGGCAGCUGUGUCAUUUCAUAAGUAAAACUGCAUCCGGGAAAUUCUGUUCUUUUGUUUAAUUUUCCCCCAAAUGAAGCCAAAGUGUUUUUUAAGGAACUGAGAAAAAAU | 0.304 |
| CUGGGCUUCUCUUUUCUUUCUUUCCUUUAGGAAAAGCCUAAAGAUUAGUAAGAAAAGAAAACAGAAGCCAUGUUUCGAAGACCUGUGUUACAGGUAUUUCGUCAGUUUGUAAGACAUGAG | 0.254 |

Sample 4
Target: Fragile X messenger ribonucleoprotein 1, C-terminal low-complexity region (Fmr1, Mus musculus, UniProt P35922)
Method: RNA Bind-n-Seq
Molecule type: RNA
Medium: in vitro
Concentration: 200 nM
Notes: whole 134-nt RNA, ends assumed
Together with: 150 mM KCl
Baseline: input library
Direction: higher = stronger binding
All sequences stand within: GGGAGUUCUACAGUCCGACGAUC … UGGAAUUCUCGGGUGUCAAGG
| Strand | log2 enrichment |
| --- | --- |
| CCUGUGCUACACAUCGUAUGUACCGAAUCGGGUUUUUUGGGUUUUUUGGGGUUUUUUGGGAAAGUAUUAUGUUACGCCGUUCGGAUCUGC | -0.208 |
| CCUGUGCUACACAUCGUAUGUACCGAAUCGGGGAAAAAAAGGGGUGGGGAAAAAAAGGGGAAAGUAUUAUGUUACGCCGUUCGGAUCUGC | 0.147 |
| UCCUGUGCUACACAUCGUAUGUACCGAAUCGGGGUUUGGGGAAAAAAAGGGGAAAGGGGAAAGUAUUAUGUUACGCCGUUCGGAUCUGCA | 0.654 |
| UAACUUUAGAGGAGGAUCUGAUGGCUAUGGCAGUGGACGUGGAUUUGGGGAUGGCUAUAAUGGGUAUGGAGGAGGACCUGGAGGUGGCAA | 0.285 |
| ACCAUGCAGGUGGGCAUCUUUGGGAAGUGGGGCAAGGGGGGGAUAGGGAGGGGGGUAACACUCUGGGAACAGGUGGUCCCAGGUCGUUUC | 0.721 |
| CUCAAGUCCUGUGCUACACAUCGUAUGUACCGAAUCGGAAAAAGGAAAGGAGGAAAGUAUUAUGUUACGCCGUUCGGAUCUGCACUUCCA | -0.471 |
| UCAAGUCCUGUGCUACACAUCGUAUGUACCGAAUCGGUUUGGAGGAAAAAAAGGAAAGUAUUAUGUUACGCCGUUCGGAUCUGCACUUCC | -0.5 |
| GUCCUGUGCUACACAUCGUAUGUACCGAAUCGGGGAAAAAGGGAAAAAGGGAAAAAGGGAAAGUAUUAUGUUACGCCGUUCGGAUCUGCA | -0.178 |
| UCCUCAAGUCCUGUGCUACACAUCGUAUGUACCGAAUCGGGAGGAGGGAGGAAAGUAUUAUGUUACGCCGUUCGGAUCUGCACUUCCAGC | -0.258 |
| ACCAUGCAGGUGGGCAUCUUUGGGAAGUGGGGCAAAAGGGGGAUAGGGAGGGGGGUAACACUUUGGGAACAGGUGGUCCCAGGUCGUUUC | 0.634 |
| CUCAAGUCCUGUGCUACACAUCGUAUGUACCGAAUCGGAGGAGGAAAAAAAGGAAAGUAUUAUGUUACGCCGUUCGGAUCUGCACUUCCA | -0.267 |
| UUACAUUACCUGGUGAAAUAGACAUUGACAGUAUCUCCUAUGAAGAGCUUUCACCACCUGAUGAAGAGCCUGCCAAGAAUAAAAAGGAAA | -1.24 |
| AGUCCUGUGCUACACAUCGUAUGUACCGAAUCGGGGUUUUUUUGGGGAGGGGUGGGGAAAGUAUUAUGUUACGCCGUUCGGAUCUGCACU | 0.763 |
| CAAGUCCUGUGCUACACAUCGUAUGUACCGAAUCGGGGUUGGGUUGGGGUUGGGGAAAGUAUUAUGUUACGCCGUUCGGAUCUGCACUUC | 1.2 |

Excerpt of the above (sample 2):
| Strand | RBNS enrichment (R) |
| --- | --- |
| UCUUCCCAGCACUUCCCUGCCUCCCCCAGGCCUCAGGCCCAGCACCCAGUUCCUCCUCACAUGGCAGGUGAGCACAGACUUCUAGUUGGCAGGAGCUGAGGAGGGUGAAC | 0.83 |
| AUGUUUUCAUAUUAUGAAAUGAAUUUGUAUUUAAACAAAAAUUUAAAUUUUGGAAUCCUCUAAACAUUUUUGUAUCUUUAAUUGUUAUUAUUAAAUCAUGUAAAAGUUCU | 0.75 |
| GAUUGAUCUUAACUGAACGAAAACAAAACUGCAUAUGUACUUAAACAGUCUGCAUAUUUGCCAUCCAGCAGAAGACUGAAGGGUGGUCAGAACAGAGGCUUUUUGUUUUU | 0.345 |
| ACACUGAUAGUAUCUCAUGAGUAAUGUGUGUUUUGGGAGAGGGAGGGAUGCUGAUUGAUAUUUCACAUUGUAUGAAAUACCAUGUUUGAAACUCAUAGCAAUAAUGCUAU | 0.626 |
